Assay results of several laboratories.
“And” joins repeats or separate records; there may be more than shown. ± marks the error that the study gave. In brackets after ≈: the same amount, converted by molar mass.
Sequence of UniProt P61823 (whole entry, looked up): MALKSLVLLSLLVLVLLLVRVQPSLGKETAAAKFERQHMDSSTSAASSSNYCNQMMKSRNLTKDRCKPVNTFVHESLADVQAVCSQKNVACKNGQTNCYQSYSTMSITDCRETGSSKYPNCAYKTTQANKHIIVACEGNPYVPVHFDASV
Sequence of UniProt P10632 (whole entry, looked up): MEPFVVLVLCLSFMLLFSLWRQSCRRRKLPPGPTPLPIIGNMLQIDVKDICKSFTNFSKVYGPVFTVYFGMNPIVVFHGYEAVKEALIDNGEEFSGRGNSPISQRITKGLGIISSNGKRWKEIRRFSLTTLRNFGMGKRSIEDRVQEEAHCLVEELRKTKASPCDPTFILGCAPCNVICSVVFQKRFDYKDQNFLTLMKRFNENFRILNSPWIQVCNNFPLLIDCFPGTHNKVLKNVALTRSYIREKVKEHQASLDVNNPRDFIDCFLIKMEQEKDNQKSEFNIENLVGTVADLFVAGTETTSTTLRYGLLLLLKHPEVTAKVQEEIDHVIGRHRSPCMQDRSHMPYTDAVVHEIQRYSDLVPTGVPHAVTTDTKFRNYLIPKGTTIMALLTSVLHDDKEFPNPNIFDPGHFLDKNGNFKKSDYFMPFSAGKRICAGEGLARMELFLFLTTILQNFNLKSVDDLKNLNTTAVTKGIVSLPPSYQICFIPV

For `Oc1ncnc2[nH]ncc12`, the EC90 was 30 µM (Toxoplasma gondii; parasite growth, luciferase reporter; HFF, tachyzoite; 72 h).
`CC(C)n1ncc2c(C(=O)NCC3(C)CNC3)cc(C3CC3)nc21` has a cell protection of -0.845% and 0.282% and 0.423% (Enterovirus D68; cytopathic effect; RD, US/KY/14-18953; 15 nM).
For `O=C(Nc1ccncc1)c1cc([N+](=O)[O-])ccc1Cl`, the EC50 was 0.75 µM (Toxoplasma gondii; parasite growth, luciferase reporter; HFF host cells, tachyzoites; 72 h).
For `COc1cccc(C(=O)C#Cc2ccc(F)c(F)c2)c1`, the biofilm formation was 83% (Pseudomonas aeruginosa; static biofilm; PA14; 10 µM, 24 h; relative to: DMSO).
`CCOc1cc(CC(=O)N[C@@H](CC(C)C)c2ccccc2N2CCCCC2)ccc1C(=O)O` gave a median Tmax of 1 h (Cytochrome P450 2C8 (CYP2C8, Homo sapiens, UniProt P10632); substrate; human, plasma; 0.5 mg, day 1).
The EC90 of `Cc1ccc(S(=O)(=O)/C=C/C#N)cc1` is reported as 6.17 µM (Toxoplasma gondii; parasite growth; HFF, bradyzoite, alkaline-induced).
With `COc1cc(C#CC(=O)c2ccccc2C)ccc1O` the biofilm formation was 75% (Pseudomonas aeruginosa; static biofilm; PA14; 10 µM, 24 h, static; relative to: DMSO).
`OC[C@H]1O[C@@H](O[C@@H]2[C@@H](O)[C@H](O[C@@H]3[C@@H](O)[C@H](O[C@@H]4[C@@H](O)[C@H](O[C@H]5[C@H](O)[C@@H](CO)OC(O)[C@@H]5O)O[C@H](CO)[C@H]4O)O[C@H](CO)[C@H]3O)O[C@H](CO)[C@H]2O)[C@H](O)[C@@H](O)[C@@H]1O` (stereo partly drawn) has a ΔH of -41.1 kcal/mol (Bacteroides uniformis; binding, ITC; pH 7.0, 25 °C, middle domain).
`CC(C)[C@H](NC(=O)[C@H](Cc1ccc(O)cc1)NC(=O)[C@H](Cc1ccc(O)cc1)NC(=O)[C@@H]1CCCN1C(=O)[C@H](CCC(=O)O)NC(=O)[C@H](CCC(=O)O)NC(=O)[C@H](Cc1c[nH]c2ccccc12)NC(=O)[C@@H]1CCCN1C(=O)[C@@H](NC(=O)[C@H](CCC(N)=O)NC(=O)c1ccc2c(c1)C(=O)OC21c2ccc(O)cc2Oc2cc(O)ccc21)C(C)C)C(=O)N[C@H](C(=O)N[C@@H](CCCCN)C(=O)N[C@@H](CCCCN)C(=O)N[C@@H](CO)C(=O)N[C@@H](CO)C(=O)NCC(=O)NCC(N)=O)C(C)C` — result for plasma concentration: “not detected” (human, plasma; intravenous infusion, 600 mg, predose, day 1).
The Kd of `Nc1ccn([C@@H]2O[C@H](COP(=O)(O)OP(=O)(O)O)[C@@H](O)[C@H]2O)c(=O)n1` is reported as 3.2 ± 0.2 µM (Ribonuclease pancreatic (RNASE1, Bos taurus, UniProt P61823); surface sampling native MS; charge state 7+).
With `COc1cc(C#C[C@H](O)CC(C)C)ccc1O` the biofilm formation was 72% (Pseudomonas aeruginosa; static biofilm; PA14; 10 µM, 24 h; relative to: DMSO).
For `Clc1ccc(C(c2ccc(Cl)cc2)n2cc[n+](CC(OCc3ccc(Cl)cc3Cl)c3ccc(Cl)cc3Cl)c2)cc1` (stereo not drawn), the EC50 was 7.75 µM (Toxoplasma gondii; parasite growth, luciferase reporter; HFF, tachyzoite; 72 h).
The biofilm formation of `COc1cc(C#CC(=O)c2cccc(Cl)c2)ccc1O` is reported as 67% (Pseudomonas aeruginosa; static biofilm; PA14; 10 µM, 24 h; relative to: DMSO).
`Cc1cc(Nc2ccc(S(F)(F)(F)(F)F)cc2)n2nc(C(C)(F)F)nc2n1` — result for “patients with QTcF increase”: 33.3% (Plasmodium falciparum; 12-lead ECG; malaria patients; oral, 250 mg, increase above 30 ms).
`Oc1ccccc1-c1n[nH]cc1-c1ccnc2ccccc12`: “log2 fold change” 0.05 (RCK2 (Candida albicans); kinase binding, MIB/MS competition; Candida albicans lysate; 1 µM; relative to: DMSO).
The clinical score of `Nc1nc(-c2ccccc2)nc2[nH]nc(Nc3ccc(C(F)(F)F)cc3)c12` is reported as 0.11 (coxsackievirus B3; 31-1-93, NMRI mice, CVB3 chronic myocarditis; oral, 100 mg/kg twice daily, day 13, dosed days 1 to 7, score scale 0 to 7; direction not given).
The MIC of `OC(Cn1cncn1)(Cn1cncn1)c1ccc(F)cc1F` is reported as 50 µM (≈ 15.3 µg/mL) (Cryptococcus neoformans; 117, RPMI 1640; 24 h, 35 °C).
With `OC[C@H]1O[C@@H](O[C@@H]2[C@@H](O)[C@H](O[C@@H]3[C@@H](O)[C@H](O[C@@H]4[C@@H](O)[C@H](O[C@@H]5[C@@H](O)[C@H](O[C@H]6[C@H](O)[C@@H](CO)OC(O)[C@@H]6O)O[C@H](CO)[C@H]5O)O[C@H](CO)[C@H]4O)O[C@H](CO)[C@H]3O)O[C@H](CO)[C@H]2O)[C@H](O)[C@@H](O)[C@@H]1O` (stereo partly drawn) the -TΔS was 21.9 kcal/mol (Bacteroides uniformis; binding, ITC; pH 7.0, 25 °C, middle domain).
`c1coc(-c2n[nH]cc2-c2ccnc3ccccc23)c1`: “log2 fold change” -0.19 (VPS15 (Candida albicans); kinase binding, MIB/MS competition; Candida albicans lysate; 1 µM; relative to: DMSO).
The mRNA level of `COc1cc(C#CC(=O)c2ccccc2)ccc1O` is reported as 16% (Pseudomonas aeruginosa; RT-qPCR, measured: rhlA; biofilm cells; 10 µM, 24 h; relative to: untreated).
`O=C1c2ccccc2C(=O)c2c(NCCc3ccc(O)cc3)ccc(NCCc3ccc(O)cc3)c21` gave an EC50 of 0.941 µM (Toxoplasma gondii; parasite growth; HFF, bradyzoite, alkaline-induced).
`CC(C)C[C@H](NC(=O)C[C@H](O)[C@H](CC(C)C)NC(=O)[C@H](Cc1c[nH]cn1)NC(=O)CNC(=O)[C@@H](NC(=O)[C@H](C)NC(=O)[C@H](Cc1c[nH]c2ccccc12)NC(=O)[C@H](CCC(N)=O)NC(=O)[C@@H](Cc1ccccc1)NC(=O)COCCOCCNC(=O)CCC(C(=O)O)N1CCN(CC(=O)O)CCN(CC(=O)O)CCN(CC(=O)O)CC1)C(C)C)C(N)=O` (stereo partly drawn) [lutetium-177 labelled] gave a tissue uptake of 0.06 ± 0.02 %ID/g (female BALB/c nu/nu mice, heart; intravenous, 100 pmol, 4 h, added: PA 300 µg).
`OC[C@H]1O[C@@H](O[C@@H]2[C@@H](O)[C@H](O[C@@H]3[C@@H](O)[C@H](O[C@H]4[C@H](O)[C@@H](CO)OC(O)[C@@H]4O)O[C@H](CO)[C@H]3O)O[C@H](CO)[C@H]2O)[C@H](O)[C@@H](O)[C@@H]1O` (stereo partly drawn) gave a ΔG of -26.9 kcal/mol (Bacteroides uniformis; binding, ITC; pH 7.0, 25 °C, middle domain).
For `CC[C@H]1[C@@H](O)[C@@H]2[C@H](CC[C@]3(C)[C@@H]([C@H](C)CCNC(=O)NS(=O)(=O)c4ccc(C(C)(C)C)cc4)CC[C@@H]23)[C@@]2(C)CC[C@@H](O)C[C@@H]12`, the Cmax was 33.2 ng/mL (ATP-dependent translocase ABCB1 (ABCB1, Homo sapiens, UniProt P08183); human, plasma; dose not given, mean, alone).
For `Cn1cc(-c2ccc(-c3cncc(Cl)c3N3CCC4(CCNC4=O)CC3)cc2)cn1`, “log2 fold change” read -2.64 (COLO 205; gene expression, microarray, measured: NRF1 mRNA; concentration not given, 2 h; relative to: untreated cells).
The mRNA level of `COc1cc(C#CC(=O)CC(C)C)ccc1O` is reported as 57% (Pseudomonas aeruginosa; RT-qPCR, measured: rhlA; biofilm cells; 10 µM, 24 h; relative to: untreated).
With `O=c1[nH]cc(F)c(=O)[nH]1` the EC90 was 30 µM (Toxoplasma gondii; parasite growth; HFF, bradyzoite, glutamine-induced).

Some of these lines once more:
`CC(C)n1ncc2c(C(=O)NCC3(C)CNC3)cc(C3CC3)nc21` has a cell protection of -0.845% and 0.282% and 0.423% (Enterovirus D68; cytopathic effect; RD, US/KY/14-18953; 15 nM).
For `O=C(Nc1ccncc1)c1cc([N+](=O)[O-])ccc1Cl`, the EC50 was 0.75 µM (Toxoplasma gondii; parasite growth, luciferase reporter; HFF host cells, tachyzoites; 72 h).
For `COc1cccc(C(=O)C#Cc2ccc(F)c(F)c2)c1`, the biofilm formation was 83% (Pseudomonas aeruginosa; static biofilm; PA14; 10 µM, 24 h; relative to: DMSO).
